Assay results gathered from unrelated publications.
Numbered parts are unrelated; each lists some results of a single study. Values joined by “and” are separate records of one study, mostly repeats; a detail may differ.
Sequence of UniProt Q9Y2K2 (whole entry, looked up): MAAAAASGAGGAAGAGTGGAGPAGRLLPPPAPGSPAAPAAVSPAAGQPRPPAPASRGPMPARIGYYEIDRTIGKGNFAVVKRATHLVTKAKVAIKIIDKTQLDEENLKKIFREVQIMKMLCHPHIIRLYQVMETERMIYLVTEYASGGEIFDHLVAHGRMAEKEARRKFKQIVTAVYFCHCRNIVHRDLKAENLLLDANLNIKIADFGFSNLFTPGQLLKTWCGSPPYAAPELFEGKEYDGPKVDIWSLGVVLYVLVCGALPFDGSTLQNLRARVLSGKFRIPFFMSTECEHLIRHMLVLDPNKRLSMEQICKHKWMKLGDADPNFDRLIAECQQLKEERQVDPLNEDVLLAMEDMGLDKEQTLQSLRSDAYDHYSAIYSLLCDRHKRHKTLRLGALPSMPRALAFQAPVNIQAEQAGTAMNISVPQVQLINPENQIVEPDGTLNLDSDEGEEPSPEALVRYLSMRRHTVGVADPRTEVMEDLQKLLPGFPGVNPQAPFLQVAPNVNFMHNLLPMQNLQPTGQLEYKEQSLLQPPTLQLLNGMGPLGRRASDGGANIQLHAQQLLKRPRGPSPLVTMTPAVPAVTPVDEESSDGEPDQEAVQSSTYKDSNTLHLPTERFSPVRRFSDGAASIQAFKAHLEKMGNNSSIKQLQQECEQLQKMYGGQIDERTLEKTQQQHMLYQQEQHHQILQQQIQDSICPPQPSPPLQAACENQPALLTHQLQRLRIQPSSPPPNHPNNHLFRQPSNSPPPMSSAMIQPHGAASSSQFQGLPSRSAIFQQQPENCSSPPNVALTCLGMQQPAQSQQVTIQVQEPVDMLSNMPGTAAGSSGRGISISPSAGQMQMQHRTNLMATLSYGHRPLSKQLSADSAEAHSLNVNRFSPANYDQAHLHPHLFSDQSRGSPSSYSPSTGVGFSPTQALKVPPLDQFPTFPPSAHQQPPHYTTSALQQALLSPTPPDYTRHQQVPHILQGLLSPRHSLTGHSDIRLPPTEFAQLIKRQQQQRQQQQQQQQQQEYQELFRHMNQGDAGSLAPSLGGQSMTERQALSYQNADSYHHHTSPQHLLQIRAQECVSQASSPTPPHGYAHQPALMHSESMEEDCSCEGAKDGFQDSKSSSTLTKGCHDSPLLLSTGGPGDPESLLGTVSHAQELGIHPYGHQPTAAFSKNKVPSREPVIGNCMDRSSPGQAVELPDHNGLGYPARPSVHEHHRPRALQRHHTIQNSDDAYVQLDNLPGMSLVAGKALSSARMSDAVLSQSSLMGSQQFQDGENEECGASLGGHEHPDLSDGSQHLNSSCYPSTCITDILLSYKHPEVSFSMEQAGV
Sequence of UniProt P06241 (whole entry, looked up): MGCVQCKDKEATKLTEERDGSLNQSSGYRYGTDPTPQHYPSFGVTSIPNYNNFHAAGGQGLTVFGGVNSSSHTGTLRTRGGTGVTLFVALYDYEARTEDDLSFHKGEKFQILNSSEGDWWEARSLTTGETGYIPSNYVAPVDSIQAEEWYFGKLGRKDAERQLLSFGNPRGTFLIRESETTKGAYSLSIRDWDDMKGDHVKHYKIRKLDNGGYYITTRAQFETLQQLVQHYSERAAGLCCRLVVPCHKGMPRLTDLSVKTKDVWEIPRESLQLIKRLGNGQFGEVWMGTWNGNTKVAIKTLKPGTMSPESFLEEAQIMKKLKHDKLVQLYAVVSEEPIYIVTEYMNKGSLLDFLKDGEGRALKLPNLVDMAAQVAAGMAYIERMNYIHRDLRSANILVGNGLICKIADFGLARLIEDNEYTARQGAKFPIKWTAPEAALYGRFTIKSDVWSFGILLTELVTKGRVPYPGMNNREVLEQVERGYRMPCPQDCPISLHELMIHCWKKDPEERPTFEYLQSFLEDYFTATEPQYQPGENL
Sequence of UniProt P54760 (whole entry, looked up): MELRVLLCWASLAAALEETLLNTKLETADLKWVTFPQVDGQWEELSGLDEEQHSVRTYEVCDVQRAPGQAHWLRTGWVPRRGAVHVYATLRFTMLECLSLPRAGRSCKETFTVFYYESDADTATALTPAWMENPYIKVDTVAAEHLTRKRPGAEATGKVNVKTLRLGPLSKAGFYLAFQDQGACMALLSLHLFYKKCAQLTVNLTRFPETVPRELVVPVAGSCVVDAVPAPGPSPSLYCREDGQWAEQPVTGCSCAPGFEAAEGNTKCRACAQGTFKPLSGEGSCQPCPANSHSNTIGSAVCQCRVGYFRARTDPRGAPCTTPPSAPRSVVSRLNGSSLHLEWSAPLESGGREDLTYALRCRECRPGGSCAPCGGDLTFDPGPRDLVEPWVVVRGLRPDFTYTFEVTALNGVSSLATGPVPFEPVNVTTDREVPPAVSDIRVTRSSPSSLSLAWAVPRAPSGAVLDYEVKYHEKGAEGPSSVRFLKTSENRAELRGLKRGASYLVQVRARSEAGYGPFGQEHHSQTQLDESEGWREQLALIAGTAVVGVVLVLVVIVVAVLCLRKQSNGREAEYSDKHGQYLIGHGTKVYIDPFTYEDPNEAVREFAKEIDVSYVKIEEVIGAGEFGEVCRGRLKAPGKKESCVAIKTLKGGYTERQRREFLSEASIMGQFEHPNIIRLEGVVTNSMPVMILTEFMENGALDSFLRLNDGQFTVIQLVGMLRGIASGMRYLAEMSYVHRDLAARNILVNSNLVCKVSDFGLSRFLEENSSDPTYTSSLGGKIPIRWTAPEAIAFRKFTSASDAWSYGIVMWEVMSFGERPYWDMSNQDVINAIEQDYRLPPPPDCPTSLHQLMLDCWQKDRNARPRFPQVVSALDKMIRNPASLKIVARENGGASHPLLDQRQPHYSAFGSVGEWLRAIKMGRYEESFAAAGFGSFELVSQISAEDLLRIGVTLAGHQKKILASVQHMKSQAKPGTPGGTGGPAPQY
Sequence of UniProt P46734 (whole entry, looked up): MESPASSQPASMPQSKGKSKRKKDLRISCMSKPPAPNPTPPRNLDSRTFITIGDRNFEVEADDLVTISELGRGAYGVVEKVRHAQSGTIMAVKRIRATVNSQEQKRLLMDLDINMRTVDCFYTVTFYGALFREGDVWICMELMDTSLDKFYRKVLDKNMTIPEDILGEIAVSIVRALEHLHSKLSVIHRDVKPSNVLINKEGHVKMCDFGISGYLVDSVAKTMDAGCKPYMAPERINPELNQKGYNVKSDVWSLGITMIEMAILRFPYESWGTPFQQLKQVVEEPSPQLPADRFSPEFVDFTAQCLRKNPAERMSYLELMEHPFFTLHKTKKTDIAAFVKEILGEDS

Series 1
Target: Proto-oncogene tyrosine-protein kinase Src (SRC, Homo sapiens, UniProt P12931)
Effect on: enzyme activity
Action: inhibitor
Tested at: 0.5 µM
Reference: control
SMILES	remaining activity [%]
N#CC(C#N)=C(N)/C(C#N)=C/c1ccc(O)cc1	92.3
C#Cc1cccc(Nc2ncnc3cc(OCCOC)c(OCCOC)cc23)c1	77.4
O=C(O)c1ccc2c3c1cccc3c(=O)n1c3ccccc3nc21	96.3
O=C1NC(=O)C(c2cn(CCCO)c3ncccc23)=C1c1cnccn1	78.9
O=C1NC(=O)C(c2cn(CCCn3ccnc3)c3ccccc23)=C1Nc1ccccc1	100
O=C(Nc1cccc(Nc2cc(Nc3cccc(C(F)(F)F)c3)ncn2)c1)C1CC1	102
Cc1nc(-c2ccccc2)c(-c2ccncc2)o1	96.2
Cn1c2ccccc2c2c3c(c4c5ccccc5n(CCC#N)c4c21)CNC3=O	74.8
CO[C@H]1C[C@@H]2CC[C@@H](C)[C@@](O)(O2)C(=O)C(=O)N2CCCC[C@H]2C(=O)O[C@H]([C@H](C)C[C@@H]2CC[C@@H](O)[C@H](OC)C2)CC(=O)[C@H](C)/C=C(\C)[C@@H](O)[C@@H](OC)C(=O)[C@H](C)C[C@H](C)/C=C/C=C/C=C/1C	96
COc1ccc(OC)c2c(=S)c3ccccc3[nH]c12	90.6
Oc1ccc(-c2nc(-c3ccncc3)c(-c3ccc(F)cc3)[nH]2)cc1	85.9
Nc1ccc2ncnc(NCCc3ccc(Oc4ccccc4)cc3)c2c1	102
CC(C)[C@H](CO)Nc1nc(Nc2cc(N)cc(Cl)c2)c2ncn(C(C)C)c2n1	3.75
CCOC(=O)c1c(C)[nH]c(/C=C2\C(=O)Nc3ccccc32)c1C	93.8

Series 2
SMILES: CCC(=N\O)/C(C)=C/c1ccc(F)cc1
Effect on: cell-free assay
Technique: competition with immobilised ligand
Tested at: 1 µM
target	remaining binding
MTOR (Homo sapiens, UniProt P42345)	100%
Tyrosine-protein kinase ABL1, phosphorylated (ABL1, Homo sapiens, UniProt P00519, T315I)	87%
ERBB2 (Homo sapiens, UniProt P04626)	83%
PRKCH (Homo sapiens, UniProt P24723)	100%
FYN (Homo sapiens, UniProt P06241)	100%
MARK2 (Homo sapiens, UniProt Q7KZI7)	100%
STK33 (Homo sapiens, UniProt Q9BYT3)	100%
EPHB4 (Homo sapiens, UniProt P54760)	73%
MAP2K3 (Homo sapiens, UniProt P46734)	94%
Tyrosine-protein kinase JAK2, JH1 (JAK2, Homo sapiens, UniProt O60674)	71%
SIK3 (Homo sapiens, UniProt Q9Y2K2)	68%
PIK3CG (Homo sapiens, UniProt P48736)	100%
AKT3 (Homo sapiens, UniProt Q9Y243)	83%
PRKAA2 (Homo sapiens, UniProt P54646)	88%
NEK1 (Homo sapiens, UniProt Q96PY6)	94%
OXSR1 (Homo sapiens, UniProt O95747)	80%
STK25 (Homo sapiens, UniProt O00506)	86%

Series 3
Cell line: mouse MPNST tumor cells
Technique: high-content nuclear imaging
Refers to: cell number
Tested at: 10 µM
Time: 12 h
Setting: mean of 2 replicates
Reference: plate mean
Direction: higher = more cells
SMILES	nuclei count
CN(C)CCOC(=O)C(c1ccccc1)C1(O)CCCC1 (stereo not drawn)	-0.244 z-score
CN1C(C(=O)Nc2ccccn2)=C(O)c2sccc2S1(=O)=O	0.224 z-score
O=C1c2c(O)ccc(O)c2C(=O)c2c(NCCNCCO)ccc(NCCNCCO)c21	-4.89 z-score and -4.94 z-score
COc1ccccc1C(=O)Nc1cc2c(cc1N1CCCC1)n(C)c(=O)n2C	1.78 z-score and 4.16 z-score
c1ccc(COCCCc2c[nH]cn2)cc1	2.11 z-score
Cc1cccc(Nc2ccccc2C(=O)O)c1C	0.432 z-score
COc1ccc(C(=O)C2CC2c2ccc(Cl)cc2)cc1 (stereo not drawn)	1.05 z-score
Cc1c(Cl)cccc1Nc1ncccc1C(=O)O	0.772 z-score
CC1(C)C(=O)N(CCN2CCC(C(=O)c3ccc(F)cc3)CC2)c2ccccc21	0.168 z-score

Series 4
Organism: Sarcocystis neurona
Effect on: parasite growth
Tested at: 10 µM
Time: 96 h
Setting: second screen
Reference: untreated
SMILES	log2 fold change
Clc1ccc2c(c1)C(N1CCNCC1)=Nc1ccccc1O2	0.22
CC(COc1ccccc1)N(CCCl)Cc1ccccc1 (stereo not drawn)	0.36
CN(C)CCC[C@@]1(c2ccc(F)cc2)OCc2cc(C#N)ccc21	0.35
Cc1ccnc2c1NC(=O)c1cccnc1N2C1CC1	0.46
CC(C)NCC(O)COc1ccc(CC(N)=O)cc1 (stereo not drawn)	0.04

Excerpt of the above (series 4):
SMILES	log2 fold change
Cc1ccnc2c1NC(=O)c1cccnc1N2C1CC1	0.46
CC(C)NCC(O)COc1ccc(CC(N)=O)cc1 (stereo not drawn)	0.04
Clc1ccc2c(c1)C(N1CCNCC1)=Nc1ccccc1O2	0.22
CN(C)CCC[C@@]1(c2ccc(F)cc2)OCc2cc(C#N)ccc21	0.35
